Experimental data of several laboratories.
Compare with care: the assays were run in different laboratories. “And” joins repeats or separate records; there may be more than shown. Numbers after ± are the reported error.
AGER: Advanced glycosylation end product-specific receptor (AGER, Homo sapiens, UniProt Q15109)
Chain of UniProt Q15109 (whole entry, looked up): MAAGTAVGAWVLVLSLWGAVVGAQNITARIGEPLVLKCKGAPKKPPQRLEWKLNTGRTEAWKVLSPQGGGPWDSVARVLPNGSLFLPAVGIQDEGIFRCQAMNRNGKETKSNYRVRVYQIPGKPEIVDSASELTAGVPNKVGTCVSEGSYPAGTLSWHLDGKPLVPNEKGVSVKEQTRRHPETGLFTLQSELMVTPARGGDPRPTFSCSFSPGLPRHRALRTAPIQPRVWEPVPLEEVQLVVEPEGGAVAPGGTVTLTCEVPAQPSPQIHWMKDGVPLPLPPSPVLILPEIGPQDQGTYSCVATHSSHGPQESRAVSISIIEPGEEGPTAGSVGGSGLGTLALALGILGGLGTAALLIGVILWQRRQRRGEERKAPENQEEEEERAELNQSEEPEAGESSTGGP
VASP: Vasodilator-stimulated phosphoprotein (VASP, Homo sapiens, UniProt P50552)
Chain of UniProt P50552 (whole entry, looked up): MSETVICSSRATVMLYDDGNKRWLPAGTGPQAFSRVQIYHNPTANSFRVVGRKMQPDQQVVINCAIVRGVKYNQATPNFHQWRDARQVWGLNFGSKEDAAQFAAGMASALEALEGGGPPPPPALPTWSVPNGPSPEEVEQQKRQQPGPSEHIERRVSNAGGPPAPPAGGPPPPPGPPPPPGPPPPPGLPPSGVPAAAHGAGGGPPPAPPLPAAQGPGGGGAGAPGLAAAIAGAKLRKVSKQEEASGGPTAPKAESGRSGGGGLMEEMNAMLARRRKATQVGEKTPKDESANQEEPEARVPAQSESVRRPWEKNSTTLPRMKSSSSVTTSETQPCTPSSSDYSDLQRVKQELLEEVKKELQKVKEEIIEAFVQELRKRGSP
MAP2K1: Dual specificity mitogen-activated protein kinase kinase 1 (MAP2K1, Homo sapiens, UniProt Q02750)
Chain of UniProt Q9SZU7 (whole entry, unmodified, looked up): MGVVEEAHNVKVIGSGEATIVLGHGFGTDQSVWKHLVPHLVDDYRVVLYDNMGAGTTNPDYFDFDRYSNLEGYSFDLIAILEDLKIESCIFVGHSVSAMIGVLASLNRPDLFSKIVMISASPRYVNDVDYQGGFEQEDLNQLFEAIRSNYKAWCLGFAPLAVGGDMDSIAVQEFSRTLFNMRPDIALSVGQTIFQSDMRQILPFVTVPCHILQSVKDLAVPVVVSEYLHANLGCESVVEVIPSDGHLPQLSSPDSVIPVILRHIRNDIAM
Chain of UniProt P08191 (whole entry, looked up): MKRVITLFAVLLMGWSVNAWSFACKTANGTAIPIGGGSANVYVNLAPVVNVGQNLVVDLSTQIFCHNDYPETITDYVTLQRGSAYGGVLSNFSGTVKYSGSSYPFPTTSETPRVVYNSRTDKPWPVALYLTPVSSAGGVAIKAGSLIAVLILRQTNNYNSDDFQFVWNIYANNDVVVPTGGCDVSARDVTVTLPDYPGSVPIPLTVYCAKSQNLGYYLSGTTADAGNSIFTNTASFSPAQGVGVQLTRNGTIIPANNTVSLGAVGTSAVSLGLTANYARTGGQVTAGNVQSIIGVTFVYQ
Chain of UniProt Q02750 (whole entry, looked up): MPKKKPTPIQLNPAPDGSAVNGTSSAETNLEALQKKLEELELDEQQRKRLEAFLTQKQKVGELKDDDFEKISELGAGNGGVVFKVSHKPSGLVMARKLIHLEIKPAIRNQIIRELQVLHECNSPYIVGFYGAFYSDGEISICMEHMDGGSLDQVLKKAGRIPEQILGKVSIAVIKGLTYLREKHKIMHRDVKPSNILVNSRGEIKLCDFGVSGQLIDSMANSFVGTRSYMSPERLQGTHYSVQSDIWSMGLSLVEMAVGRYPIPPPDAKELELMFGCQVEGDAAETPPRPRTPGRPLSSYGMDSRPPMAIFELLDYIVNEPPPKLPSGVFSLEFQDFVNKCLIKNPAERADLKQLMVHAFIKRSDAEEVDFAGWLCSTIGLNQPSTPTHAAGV
Chain of UniProt O14757 (whole entry, looked up): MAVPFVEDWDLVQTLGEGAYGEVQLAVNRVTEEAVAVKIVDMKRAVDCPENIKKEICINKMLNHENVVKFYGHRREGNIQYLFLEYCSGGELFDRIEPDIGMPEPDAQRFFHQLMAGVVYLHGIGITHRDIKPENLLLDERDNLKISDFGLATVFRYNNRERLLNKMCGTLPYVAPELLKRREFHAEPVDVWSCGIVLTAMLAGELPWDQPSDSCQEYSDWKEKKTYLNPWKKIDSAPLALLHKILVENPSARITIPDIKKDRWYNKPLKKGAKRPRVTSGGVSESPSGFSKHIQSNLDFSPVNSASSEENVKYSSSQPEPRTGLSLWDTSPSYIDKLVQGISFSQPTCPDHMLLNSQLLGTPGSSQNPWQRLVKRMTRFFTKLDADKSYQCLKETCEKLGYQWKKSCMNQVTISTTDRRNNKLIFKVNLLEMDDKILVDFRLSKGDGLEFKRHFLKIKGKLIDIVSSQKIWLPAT
Chain of UniProt O96013 (whole entry, looked up): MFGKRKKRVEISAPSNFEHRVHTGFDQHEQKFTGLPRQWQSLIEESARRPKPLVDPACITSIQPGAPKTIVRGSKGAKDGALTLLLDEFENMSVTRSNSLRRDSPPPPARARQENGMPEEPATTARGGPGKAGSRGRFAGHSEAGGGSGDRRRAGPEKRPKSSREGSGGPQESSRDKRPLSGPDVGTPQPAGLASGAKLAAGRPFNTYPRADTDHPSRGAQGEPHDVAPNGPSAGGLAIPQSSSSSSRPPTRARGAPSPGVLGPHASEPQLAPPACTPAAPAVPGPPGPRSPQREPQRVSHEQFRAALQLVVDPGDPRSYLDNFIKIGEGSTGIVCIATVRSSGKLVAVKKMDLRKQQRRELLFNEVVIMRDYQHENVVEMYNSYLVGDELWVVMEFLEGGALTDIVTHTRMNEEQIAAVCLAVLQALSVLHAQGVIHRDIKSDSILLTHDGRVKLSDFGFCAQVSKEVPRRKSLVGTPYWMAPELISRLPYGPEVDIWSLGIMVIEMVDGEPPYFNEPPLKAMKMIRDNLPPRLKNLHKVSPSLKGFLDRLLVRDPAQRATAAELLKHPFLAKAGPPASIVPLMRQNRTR
Chain of UniProt O75469 (whole entry, unmodified, looked up): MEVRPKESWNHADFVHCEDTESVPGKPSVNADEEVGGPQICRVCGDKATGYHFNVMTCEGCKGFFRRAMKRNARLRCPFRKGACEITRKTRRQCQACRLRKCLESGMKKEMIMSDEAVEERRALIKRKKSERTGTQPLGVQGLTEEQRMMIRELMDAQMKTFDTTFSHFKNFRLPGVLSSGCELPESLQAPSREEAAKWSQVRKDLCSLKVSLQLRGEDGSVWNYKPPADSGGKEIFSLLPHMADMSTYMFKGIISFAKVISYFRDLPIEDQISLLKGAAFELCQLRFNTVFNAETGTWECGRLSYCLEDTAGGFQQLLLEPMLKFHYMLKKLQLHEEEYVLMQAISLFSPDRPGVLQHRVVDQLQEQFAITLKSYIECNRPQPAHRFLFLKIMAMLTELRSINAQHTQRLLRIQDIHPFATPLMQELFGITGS
Chain of UniProt Q8NEZ5 (whole entry, looked up): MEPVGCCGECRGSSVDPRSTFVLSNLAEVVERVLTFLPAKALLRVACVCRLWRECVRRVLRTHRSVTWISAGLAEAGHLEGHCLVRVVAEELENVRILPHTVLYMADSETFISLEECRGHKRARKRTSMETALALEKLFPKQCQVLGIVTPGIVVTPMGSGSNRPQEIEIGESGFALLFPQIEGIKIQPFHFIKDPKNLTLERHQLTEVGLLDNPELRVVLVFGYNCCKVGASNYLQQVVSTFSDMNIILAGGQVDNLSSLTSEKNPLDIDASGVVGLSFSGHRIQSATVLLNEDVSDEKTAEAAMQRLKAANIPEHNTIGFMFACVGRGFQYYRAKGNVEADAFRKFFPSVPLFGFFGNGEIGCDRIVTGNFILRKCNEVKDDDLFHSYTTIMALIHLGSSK
Chain of UniProt P16885 (whole entry, looked up): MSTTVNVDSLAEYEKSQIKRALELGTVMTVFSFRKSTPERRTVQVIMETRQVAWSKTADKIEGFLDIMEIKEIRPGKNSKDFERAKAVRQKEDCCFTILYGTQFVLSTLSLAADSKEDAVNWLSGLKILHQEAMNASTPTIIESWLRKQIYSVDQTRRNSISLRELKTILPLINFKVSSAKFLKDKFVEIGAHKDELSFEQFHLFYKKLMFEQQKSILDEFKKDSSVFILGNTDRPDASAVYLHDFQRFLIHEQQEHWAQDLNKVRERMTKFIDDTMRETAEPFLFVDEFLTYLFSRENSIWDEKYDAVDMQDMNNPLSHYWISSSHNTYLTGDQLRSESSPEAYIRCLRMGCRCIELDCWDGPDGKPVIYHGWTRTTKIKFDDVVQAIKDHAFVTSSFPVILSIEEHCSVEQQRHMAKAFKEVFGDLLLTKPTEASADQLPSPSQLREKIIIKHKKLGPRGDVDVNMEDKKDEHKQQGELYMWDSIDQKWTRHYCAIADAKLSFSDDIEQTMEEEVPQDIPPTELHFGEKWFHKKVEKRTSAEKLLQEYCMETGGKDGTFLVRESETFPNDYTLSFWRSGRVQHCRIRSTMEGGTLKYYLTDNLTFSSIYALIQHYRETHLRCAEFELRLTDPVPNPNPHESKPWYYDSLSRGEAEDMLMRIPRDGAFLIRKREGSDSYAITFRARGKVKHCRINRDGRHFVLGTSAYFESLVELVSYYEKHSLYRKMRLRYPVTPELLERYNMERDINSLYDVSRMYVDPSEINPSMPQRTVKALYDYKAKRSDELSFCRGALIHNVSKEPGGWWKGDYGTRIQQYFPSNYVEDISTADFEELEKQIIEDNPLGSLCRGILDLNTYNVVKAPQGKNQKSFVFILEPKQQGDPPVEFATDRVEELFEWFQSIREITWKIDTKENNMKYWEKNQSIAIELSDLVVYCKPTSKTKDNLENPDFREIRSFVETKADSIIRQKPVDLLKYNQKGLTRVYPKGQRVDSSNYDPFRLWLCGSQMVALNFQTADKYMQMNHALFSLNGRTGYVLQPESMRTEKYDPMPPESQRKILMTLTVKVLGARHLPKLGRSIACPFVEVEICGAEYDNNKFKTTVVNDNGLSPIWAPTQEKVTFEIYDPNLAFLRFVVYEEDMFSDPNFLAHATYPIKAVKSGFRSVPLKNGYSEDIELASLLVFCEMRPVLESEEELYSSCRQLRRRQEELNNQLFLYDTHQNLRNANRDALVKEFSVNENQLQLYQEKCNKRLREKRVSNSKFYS

SMILES	tested on	test	test system	conditions	how to read	endpoint	result
COc1ccc(OC)c(-n2nnc(C(=O)Nc3cc(OCCOCCOCCOCCNC(=O)CCc4ccc5n4[B-](F)(F)[N+]4=C(C)C=C(C)C4=C5)cc(C(C)(C)C)c3)c2C)c1	Nuclear receptor subfamily 1 group I member 2, ligand-binding domain (NR1I2, Homo sapiens, UniProt O75469, L411W)	binding		PXR LBD L411W		Kd	0.047 ± 0.0006 µM
O=C(Nc1cc(F)c(F)c(F)c1)c1ccc(F)c(S(=O)(=O)N2CCC(O)CC2)c1	Capsid protein (C, Hepatitis B virus genotype D subtype ayw, UniProt P03146)	surface plasmon resonance		25 °C		Kd	726 µM
O=C(Nc1cc(-c2ccnc3[nH]ccc23)c(Cl)cn1)[C@H]1CCC[C@@H](NC(=O)C(F)(F)F)C1	CDK9 (Homo sapiens, UniProt P50750)	binding, competition with immobilised ligand				Kd	0.00028 µM
C=CC(=O)Nc1cccc(Cn2ncc3cnc(Nc4cnn(CCOC)c4)nc32)c1	NEK7 human	binding, KINOMEscan		100 nM	lower = stronger binding	percent of control	97%
O=C(Nc1ccc(F)cc1)Nc1ccc(C2=NNC(c3ccc(NC(=O)Nc4ccc(F)cc4)cc3)C2)cc1 (stereo not drawn)	AGER	binding				Kd	10.7 ± 4 µM
CC(=O)NC(Cc1ccccc1Cl)C(=O)N1CCCC1C(=O)N1CCCC1C(=O)N1CCC2C=CC3C(C)CC(C(=O)O)N3C(=O)C21 (stereo not drawn)	VASP	binding, fluorescence				Kd	0.38 µM
CN(C)c1ccc(/C=C/c2cc(/C=C3\Sc4ccccc4N3CCCN3CCCC3)c3ccccc3[n+]2C)cc1	Ds26 DNA	isothermal titration calorimetry		pH 7.4, 25 °C, 2% DMSO		Kd	24.6 µM
Nc1nnc(-c2ccccc2O)cc1N1CC2CCC(C1)N2c1ccnc(C#CCCN2CCCCCC2)c1	F-box only protein 22, with SKP1 (Homo sapiens, UniProt Q8NEZ5)	binding, surface plasmon resonance		FBXO22-SKP1 complex immobilised		Kd	> 2 µM
CCc1nc2cc3ccccc3cc2cc1C(=O)N1CCC[C@H]1C(=O)N[C@@H](CCC/C=C\CCC[C@H](NC(=O)[C@@H]1CCCN1C(=O)c1cc2cc3ccccc3cc2nc1CC)C(=O)N[C@@H](CCCCN)C(=O)NCCCN)C(=O)N[C@@H](CCCCN)C(=O)NCCCN	(CCUG)10 RNA	SPR				Kd	0.265 µM
Nc1ncc(-c2cc(-c3cnn(CC(F)(F)F)c3)ncc2F)nc1C(=O)NC1CNCC(F)C1 (stereo not drawn)	CHEK1 (Homo sapiens, UniProt O14757)	binding, competition with immobilised ligand				Kd	0.81 µM
COC1CN([C@H]2CC[C@H]([C@@]3(C)Oc4c(Cl)cc(C(=O)NCc5c(SC)cc(C)[nH]c5=O)c(C)c4O3)CC2)C1		RNA-seq, item: DZIP1 mouse homolog	mouse, HT-1376 xenograft, whole blood	dose not given	reference: vehicle	log2 fold change	1.17
CC[C@H](C)[C@H](NC(=O)[C@H](CCCCN)NC(=O)[C@H](CC(N)=O)NC(=O)CNC(=O)[C@@H](NC(=O)[C@H](C)NC(=O)[C@H](CCCNC(=N)N)NC(=O)[C@H](CC(C)C)NC(=O)[C@H](CCCCN)NC(=O)[C@H](CCCCN)NC(=O)[C@H](CCCCN)NC(=O)[C@H](C)NC(=O)[C@H](CCCCN)NC(=O)[C@@H]1CSSC[C@H](NC(=O)[C@H](CCCNC(=N)N)NC(=O)CN)C(=O)N[C@@H](CC(N)=O)C(=O)N[C@@H](CC(C)C)C(=O)N[C@@H](CC(C)C)C(=O)N1)C(C)C)C(=O)N[C@@H](CCCCN)C(=O)N[C@@H](CCC(=O)O)C(=O)N[C@H](C(=O)N[C@@H](CCCCN)C(=O)N[C@@H](CC(N)=O)C(=O)N[C@H](C(=O)N[C@H](C(=O)N[C@@H](Cc1ccccc1)C(=O)N[C@@H](CC(N)=O)C(=O)N[C@@H](CCCNC(=N)N)C(=O)O)C(C)C)C(C)C)[C@@H](C)CC	lipopolysaccharide	binding, isothermal titration calorimetry	PBS	pH 7.2, 25 °C		Kd	11.9 ± 1.08 µM
CCc1nc2cc3ccccc3cc2cc1C(=O)N1CCC[C@H]1C(=O)N[C@@H](C/C=C/C[C@H](NC(=O)[C@@H]1CCCN1C(=O)c1cc2cc3ccccc3cc2nc1CC)C(=O)N[C@@H](CCCCN)C(=O)NCCCN)C(=O)N[C@@H](CCCCN)C(=O)NCCCN	(CCUG)10 RNA	SPR				Kd	0.017 µM
CCCCCCCO[C@H]1CO[C@H](CO)[C@@H](O)[C@H](O)[C@@H]1O	Type 1 fimbrin D-mannose specific adhesin, lectin domain (fimH, Escherichia coli K-12, UniProt P08191)	binding, isothermal titration calorimetry		15 °C, individual titrations		Kd	0.186 µM and 0.154 µM
CCCC[C@@H]1NC(=O)[C@H](Cc2ccc(O)cc2)NC(=O)[C@@H]2CCCN2C(=O)[C@H](CC(=O)O)NC(=O)[C@H](C)NC(=O)[C@H](Cc2ccccc2)NC(=O)[C@@H]2CSCCC(=O)N3CN(CN(C3)C(=O)CCSC[C@@H](C(=O)N[C@@H](C)C(N)=O)NC1=O)C(=O)CCSC[C@H](NC(C)=O)C(=O)N[C@@H](CC(C)(C)C)C(=O)N1CCC[C@H]1C(=O)N[C@@H](CCC(=O)O)C(=O)N[C@H](CCCCNC(=O)CCc1cn(CCOCCOCCOCCN(CCOCCOCCOCCC(=O)N[C@H]3CSCCC(=O)N4CN5CN(C4)C(=O)CCSC[C@H](NC(=O)[C@@H](CC(=O)O)NC(=O)[C@H](Cc4cccc6ccccc46)NC(=O)[C@@H]4CCCN4C3=O)C(=O)N[C@@H](CCSC)C(=O)N[C@@H](CCCCNC(=N)N)C(=O)N[C@@H](CC(=O)O)C(=O)N[C@@H](Cc3c[nH]c4ccccc34)C(=O)N[C@@H](CO)C(=O)N[C@@H]([C@@H](C)O)C(=O)N3CCC[C@H]3C(=O)N3C[C@H](O)C[C@H]3C(=O)N[C@@H](Cc3c[nH]c4ccccc34)C(=O)N[C@H](C(N)=O)CSCCC5=O)CCOCCOCCOCCn3cc(CCC(=O)NCCCC[C@H]4NC(=O)[C@H](CCC(=O)O)NC(=O)[C@@H]5CCCN5C(=O)[C@H](CC(C)(C)C)NC(=O)[C@@H](NC(C)=O)CSCCC(=O)N5CN6CN(C5)C(=O)CCSC[C@H](NC(=O)[C@H](Cc5ccc(O)cc5)NC(=O)[C@@H]5CCCN5C4=O)C(=O)N[C@@H](Cc4ccccc4)C(=O)N[C@@H](C)C(=O)N[C@@H](CC(=O)O)C(=O)N4CCC[C@H]4C(=O)N[C@@H](Cc4ccc(O)cc4)C(=O)N[C@@H](CCCC)C(=O)N[C@H](C(=O)N[C@@H](C)C(N)=O)CSCCC6=O)nn3)nn1)C(=O)N1CCC[C@H]1C(=O)N[C@@H](Cc1ccc(O)cc1)C(=O)N2	Cell adhesion molecule 1 (CADM1, Homo sapiens, UniProt Q9BY67)	SPR				Kd	> 0.2 µM
NCCCC[C@H](NC(=O)[C@H](C/C=C\C[C@H](NC(=O)[C@@H]1CCCN1)C(=O)N[C@@H](CCCCN)C(=O)NCCCN)NC(=O)[C@@H]1CCCN1)C(=O)NCCCN	(CCUG)10 RNA	SPR				Kd	21.2 µM
Cc1nn(-c2cccc(N)c2)c(=O)c2cnc(Nc3ccc(N4CCNCC4)cc3)nc12	PAK4 (Homo sapiens, UniProt O96013)	kinase activity, inhibitor, SelectScreen kinase profiling				IC50	> 10 µM
CC(=O)NC(Cc1ccccc1Cl)C(=O)N1CCCC12C=CC1CCC(C(=O)N3CCC4C=CC5CCC(C(=O)O)N5C(=O)C43)N1C2=O (stereo not drawn)	VASP	binding, fluorescence				Kd	2.3 µM
CC[C@H](C)[C@@H]1NC(=O)[C@H](CC(=O)N[C@@H]2O[C@H](CO)[C@@H](O[C@@H]3O[C@H](CO)[C@@H](O[C@@H]4O[C@H](CO[C@H]5O[C@H](CO[C@H]6O[C@H](CO)[C@@H](O)[C@H](O)[C@@H]6O)[C@@H](O)[C@H](O[C@H]6O[C@H](CO)[C@@H](O)[C@H](O)[C@@H]6O)[C@@H]5O)[C@@H](O)[C@H](O[C@H]5O[C@H](CO)[C@@H](O)[C@H](O)[C@@H]5O)[C@@H]4O)[C@H](O)[C@H]3NC(C)=O)[C@H](O)[C@H]2NC(C)=O)NC(=O)[C@H](Cc2ccccc2)NC(=O)[C@H](CO)NC(=O)[C@H](CO)NC(=O)[C@H](CC(=O)N[C@@H]2O[C@H](CO)[C@@H](O[C@@H]3O[C@H](CO)[C@@H](O[C@@H]4O[C@H](CO[C@H]5O[C@H](CO)[C@@H](O)[C@H](O)[C@@H]5O[C@@H]5O[C@H](CO)[C@@H](O[C@@H]6O[C@H](CO[C@]7(C(=O)O)C[C@H](O)[C@@H](NC(C)=O)[C@H]([C@H](O)[C@H](O)CO)O7)[C@H](O)[C@H](O)[C@H]6O)[C@H](O)[C@H]5NC(C)=O)[C@@H](O)[C@H](O[C@H]5O[C@H](CO)[C@@H](O)[C@H](O)[C@@H]5O[C@@H]5O[C@H](CO)[C@@H](O[C@@H]6O[C@H](CO[C@]7(C(=O)O)C[C@H](O)[C@@H](NC(C)=O)[C@H]([C@H](O)[C@H](O)CO)O7)[C@H](O)[C@H](O)[C@H]6O)[C@H](O)[C@H]5NC(C)=O)[C@@H]4O)[C@H](O)[C@H]3NC(C)=O)[C@H](O)[C@H]2NC(C)=O)NC(=O)[C@@H](NC(=O)[C@@H](NC(=O)CCCCCNC(=O)CCCC[C@@H]2SC[C@@H]3NC(=O)N[C@@H]32)C(C)C)CSSC[C@@H](C(=O)N[C@@H](Cc2ccc(O)cc2)C(N)=O)NC(=O)[C@H](CC(C)C)NC(=O)[C@H](C)NC(=O)[C@H](Cc2ccc(O)cc2)NC(=O)[C@H](C)NC(=O)[C@H](CCCCN)NC(=O)[C@H](CCC(N)=O)NC(=O)[C@H](CCCCN)NC(=O)[C@H](CCCCN)NC(=O)[C@H](CC(=O)O)NC(=O)[C@H](CCCNC(=N)N)NC(=O)[C@H](CC(C)C)NC(=O)[C@H](CCC(=O)O)NC(=O)[C@H]([C@@H](C)O)NC(=O)[C@H]([C@@H](C)O)NC1=O	PG16 Fab (human)	binding, SPR		25 °C, immobilized V1V2 glycopeptide		Kd	130 ± 2 µM
Cc1c[nH]c2nccc(-c3ccc(C(=O)N[C@@H]4c5c(F)cc(C(F)F)cc5C[C@@H]4O)cn3)c12	MAP2K1	binding, competition with immobilised ligand				Kd	0.029 µM
Cc1cccc2c1N(C(=O)n1ccnn1)CC2	KAI2 (Arabidopsis thaliana, UniProt Q9SZU7, F26A)	ITC		F26A mutant		Kd	245 µM and 193 µM and 142 µM
CCCCC(=O)N1N=C(c2ccc(NC(=O)Nc3ccc(Cl)cc3)cc2)CC1c1ccc(Cl)cc1 (stereo not drawn)	AGER	binding				Kd	22.6 ± 1.1 µM
NCc1ccc(Cl)cc1	Maoa (Rattus norvegicus, UniProt P21396)			pH 7.5, deprotonated amine, pKa-corrected		Kd	0.75 µM
CCOC(=O)c1ccc2n[nH]cc2c1	MAP2K1	binding, microscale thermophoresis		25 °C		Kd	57.1 µM
CC(=O)NC(Cc1ccccc1Cl)C(=O)N1CCCC12C=CC1CCC(C(=O)N3CCC4C=CC5C(C)CC(C(=O)O)N5C(=O)C43)N1C2=O (stereo not drawn)	VASP	binding, fluorescence				Kd	0.28 µM
CCc1nc2cc3ccccc3cc2cc1C(=O)N[C@@H](CCCCN)C(=O)N[C@@H](C/C=C/C[C@H](NC(=O)[C@H](CCCCN)NC(=O)c1cc2cc3ccccc3cc2nc1CC)C(=O)N1CCC[C@H]1C(=O)NCCCN)C(=O)N1CCC[C@H]1C(=O)NCCCN	(CCUG)10 RNA	SPR				Kd	0.152 µM
Clc1ccc2c(c1)N(CCCN1CCN(CCn3cc(CN4CCCNCCN(Cc5cn(CCN6CCN(CCCN7c8ccccc8Sc8ccc(Cl)cc87)CC6)nn5)CCCNCC4)nn3)CC1)c1ccccc1S2	APP (Homo sapiens, UniProt P05067)	binding, NMR				Kd	4.6 µM
O=C(O)Cc1ccccc1Nc1c(Cl)cccc1Cl	PLCG2 (Homo sapiens, UniProt P16885)	binding, surface plasmon resonance		25 °C, immobilised residues 1-1195		Kd	82 µM
O=C(Nc1ccc(Cl)cc1)Nc1ccc(C2CC(c3ccc(Cl)cc3)=NN2)cc1 (stereo not drawn)	AGER	binding				Kd	59.3 ± 7.6 µM
C[C@@]12C(=O)O[C@]3(CC[C@@H]1O)[C@@H]1CC[C@@H]4C[C@]1(C[C@]4(O)CO)[C@@H](C(=O)O)[C@@H]32	GID1 (Oryza sativa, UniProt Q6L545)					Kd	6.67 µM
